Experimental data of several laboratories.
Parts stem from different laboratories: compare values within a part only. Changes are numbered by the printed parent chain.
Chain of UniProt Q9UQM7 (whole entry, looked up): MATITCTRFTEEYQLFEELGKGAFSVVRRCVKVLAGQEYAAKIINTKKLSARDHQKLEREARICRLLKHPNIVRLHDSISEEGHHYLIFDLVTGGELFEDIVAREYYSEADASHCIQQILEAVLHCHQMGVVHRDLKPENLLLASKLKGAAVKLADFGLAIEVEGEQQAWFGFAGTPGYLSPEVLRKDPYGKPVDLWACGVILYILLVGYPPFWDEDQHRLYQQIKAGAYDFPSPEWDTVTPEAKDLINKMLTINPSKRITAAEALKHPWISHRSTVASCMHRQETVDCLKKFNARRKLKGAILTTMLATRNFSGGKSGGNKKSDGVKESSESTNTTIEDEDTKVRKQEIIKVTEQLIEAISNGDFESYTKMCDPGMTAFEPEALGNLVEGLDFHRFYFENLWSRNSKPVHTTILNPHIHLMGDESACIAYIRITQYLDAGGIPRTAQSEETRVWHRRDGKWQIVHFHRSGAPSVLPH

Set 1
Target: CCND3, cyclin fold, Cln2 fusion (human)
Method: yeast growth competition, sequencing
Matrix: yeast
Setting: weak parent motif
Reference: not given
Direction: higher = stronger binding
Parent: viral docking peptide; TSVRRALFTGGSD; partner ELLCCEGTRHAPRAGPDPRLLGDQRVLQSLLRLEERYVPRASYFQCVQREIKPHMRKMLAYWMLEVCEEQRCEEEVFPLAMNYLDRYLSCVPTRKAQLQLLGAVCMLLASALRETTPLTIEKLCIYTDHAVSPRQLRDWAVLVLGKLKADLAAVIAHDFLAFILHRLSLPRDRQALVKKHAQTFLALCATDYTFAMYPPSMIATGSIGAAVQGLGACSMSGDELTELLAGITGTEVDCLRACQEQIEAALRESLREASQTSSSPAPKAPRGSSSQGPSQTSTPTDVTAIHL
For `TSVRRALFTGGWD [S12W]`, “normalised enrichment score” read -0.0359.
`TSVRRALFTGGRD [S12R]`: “normalised enrichment score” 0.417.
`TSVRRALFTGGND [S12N]`: “normalised enrichment score” 0.0417.
For `TSVRRATFTGGSD [L7T]`, “normalised enrichment score” read 0.208.
Under “normalised enrichment score”, `TSVRRALPTGGSD [F8P]` is recorded as 0.076.
Under “normalised enrichment score”, `TSVRRALFTGGHD [S12H]` is recorded as -0.119.
`TSVRRALMTGGSD [F8M]`: “normalised enrichment score” 0.142.
For `TSPRRALFTGGSD [V3P]`, “normalised enrichment score” read -0.0393.

Set 2
Target: tungstate, free oxyanion
Method: microfluidic competitive inhibition
Matrix: in vitro, cell-free expressed
Tested at: not given
Setting: derived from inhibition constants, unchanged parent 2230 nM
Direction: lower = stronger binding
Parent: PafA, mature enzyme, eGFP fusion (Elizabethkingia meningoseptica, UniProt Q9KJX5); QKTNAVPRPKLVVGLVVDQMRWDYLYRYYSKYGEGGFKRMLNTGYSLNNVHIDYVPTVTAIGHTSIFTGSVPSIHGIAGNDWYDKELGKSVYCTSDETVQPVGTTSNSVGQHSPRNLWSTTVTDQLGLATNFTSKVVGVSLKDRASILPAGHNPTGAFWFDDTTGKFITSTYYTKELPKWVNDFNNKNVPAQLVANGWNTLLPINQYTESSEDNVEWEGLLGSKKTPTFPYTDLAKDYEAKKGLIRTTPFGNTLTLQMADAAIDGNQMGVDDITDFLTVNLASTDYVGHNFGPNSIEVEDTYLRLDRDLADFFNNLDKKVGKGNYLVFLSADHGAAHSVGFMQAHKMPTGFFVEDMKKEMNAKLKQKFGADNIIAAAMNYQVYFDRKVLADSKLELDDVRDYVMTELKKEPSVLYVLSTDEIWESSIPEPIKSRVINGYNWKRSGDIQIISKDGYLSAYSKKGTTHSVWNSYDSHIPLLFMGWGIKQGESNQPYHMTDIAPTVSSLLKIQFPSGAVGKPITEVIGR
Under “oxyanion analog dissociation constant”, `N107G` is recorded as 2.36 µM.
`K166G` — result for “oxyanion analog dissociation constant”: 2.33 µM.
Under “oxyanion analog dissociation constant”, `H345G` is recorded as 1.97 µM.
Under “oxyanion analog dissociation constant”, `V139A` is recorded as 1.63 µM.
For `K409V`, “oxyanion analog dissociation constant” read 2.12 µM.
`N379G` — result for “oxyanion analog dissociation constant”: 2.12 µM.
Under “oxyanion analog dissociation constant”, `E218V` is recorded as 1.42 µM.
Under “oxyanion analog dissociation constant”, `S95V` is recorded as 4.95 µM.

Further values, each from its own experiment
With `C[C@H](N)[C@H](O)c1ccc(O)c(O)c1` the infection rate was 97.3% (Plasmodium berghei; inhibitor; Huh-7, liver stage; 10 µM, 24 h; reference: untreated control).
`CC(C)n1nc(O)c2c1NC(=O)CSC2c1ccc(C(=O)O)cc1` (stereo not drawn) gave a remaining compound of 85.6% (mouse, microsomes or S9; 2 µM, 0.5 h).
`COc1ccc2c(c1OC)C(=O)O[C@@H]2[C@H]1c2cc3c(cc2CCN1C)OCO3` has an infection rate of 120% (Plasmodium berghei; inhibitor; Huh-7, liver stage; 10 µM, 24 h; reference: untreated control).
For `CC12CC3(C(=O)Nc4ccc(Cl)cc4C(=O)c4ccccc4)C1CCC23C` (stereo not drawn), the remaining compound was 2.4% (mouse, microsomes or S9; 2 µM, 0.5 h).
The inhibition of `O=C1CCC[C@@H]2[C@H]3CCCN4CCC[C@@H](CN12)[C@@H]34` is reported as 2% (Calcium/calmodulin-dependent protein kinase type II subunit alpha (CAMK2A, Homo sapiens, UniProt Q9UQM7); enzyme activity, inhibitor; 10 µM).

A few entries again (set 2):
`K166G` — result for “oxyanion analog dissociation constant”: 2.33 µM.
Under “oxyanion analog dissociation constant”, `N107G` is recorded as 2.36 µM.
